Results from different studies.
Every numbered part comes from another study and shows a few of its results, in no order. Substitutions count along the parent as printed.
Chain of UniProt P62344 (whole entry, looked up): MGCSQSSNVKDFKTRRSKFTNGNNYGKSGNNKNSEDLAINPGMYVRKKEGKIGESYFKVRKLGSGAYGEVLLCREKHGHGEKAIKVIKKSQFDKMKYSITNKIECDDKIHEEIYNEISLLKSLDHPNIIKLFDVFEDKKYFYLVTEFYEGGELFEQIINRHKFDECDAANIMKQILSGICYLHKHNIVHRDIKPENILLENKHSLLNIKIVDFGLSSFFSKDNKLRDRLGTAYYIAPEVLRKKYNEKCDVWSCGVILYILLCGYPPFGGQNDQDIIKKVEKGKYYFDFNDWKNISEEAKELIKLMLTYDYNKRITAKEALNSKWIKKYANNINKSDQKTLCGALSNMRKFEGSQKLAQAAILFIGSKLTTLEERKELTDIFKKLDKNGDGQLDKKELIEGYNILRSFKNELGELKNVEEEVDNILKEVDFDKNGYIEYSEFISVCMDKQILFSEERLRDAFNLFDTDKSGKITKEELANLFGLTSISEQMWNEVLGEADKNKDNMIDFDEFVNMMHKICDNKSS

Series 1
Target: CCND1, cyclin fold, Cln2 fusion (human)
Technique: yeast growth competition, sequencing
Medium: yeast
Notes: strong parent motif
Reference: not given
Direction: higher = stronger binding
Quantity: normalised enrichment score
Parent: viral docking peptide; YKVKRRLVFGADD
V8T: 3.61
L7A: -0.315
V8A: 0.785
K4E: 1.37
R6D: 0.0878
K4P: 0.928
A11V: 2.04
G10N: 2.02

Series 2
Target: HLA class I histocompatibility antigen, C alpha chain, allele C*04:01 (Homo sapiens, UniProt P10321)
Read-out: peptide-MHC binding
Form: peptide
Concentration: concentration not given
Quantity: binding
YAYNSSLLY: inactive
ILMARYMSK: inactive
REWGWRIPF: inactive
KMFNRASYF: inactive
YYSNKVFPI: inactive
MERFSWHVA: inactive
YAMAIRQAI: inactive
WPTPKTHPV: inactive

Further values, each from its own experiment
LTK: Leukocyte tyrosine kinase receptor (LTK, Homo sapiens, UniProt P29376)
Chain of UniProt P29376 (whole entry, looked up): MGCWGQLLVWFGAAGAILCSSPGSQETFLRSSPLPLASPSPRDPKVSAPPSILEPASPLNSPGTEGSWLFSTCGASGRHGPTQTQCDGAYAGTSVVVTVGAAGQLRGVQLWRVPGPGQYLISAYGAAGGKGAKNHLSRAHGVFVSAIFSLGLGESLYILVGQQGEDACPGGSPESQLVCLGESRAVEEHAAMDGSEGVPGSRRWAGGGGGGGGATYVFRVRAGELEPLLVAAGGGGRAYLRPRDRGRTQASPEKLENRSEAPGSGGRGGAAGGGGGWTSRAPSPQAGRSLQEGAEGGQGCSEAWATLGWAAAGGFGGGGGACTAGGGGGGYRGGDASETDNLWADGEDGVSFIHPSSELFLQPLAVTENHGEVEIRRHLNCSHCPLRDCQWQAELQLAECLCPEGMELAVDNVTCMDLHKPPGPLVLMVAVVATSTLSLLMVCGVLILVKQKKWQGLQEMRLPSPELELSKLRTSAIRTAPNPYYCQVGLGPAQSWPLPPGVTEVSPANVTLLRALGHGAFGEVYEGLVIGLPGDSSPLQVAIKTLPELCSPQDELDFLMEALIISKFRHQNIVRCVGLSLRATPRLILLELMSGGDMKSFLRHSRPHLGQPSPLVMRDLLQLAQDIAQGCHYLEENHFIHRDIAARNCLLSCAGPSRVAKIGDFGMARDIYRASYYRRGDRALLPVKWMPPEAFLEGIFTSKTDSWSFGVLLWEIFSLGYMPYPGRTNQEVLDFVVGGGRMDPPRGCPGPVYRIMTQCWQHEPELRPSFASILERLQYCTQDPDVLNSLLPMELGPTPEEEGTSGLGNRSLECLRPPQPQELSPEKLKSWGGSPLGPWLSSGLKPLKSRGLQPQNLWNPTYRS
CCOc1cc2ncnc(Nc3cccc(Br)c3)c2cc1OCC — remaining activity (LTK; enzyme activity, inhibitor, radiometric; 0.5 µM): 69.7%
N#Cc1c(Oc2ccc(F)c(NC(=O)Cc3cccc(C(F)(F)F)c3)c2)ccc2nc(NC(=O)C3CC3)sc12 — viability (L929; necroptosis protection, CCK-8; 0.039 µM, added: TNF-α-induced): 24.8%
CCCOc1ccc([C@H]2[C@H](C(=O)O)[C@@H](c3ccc4c(c3)OCO4)CN2CC(=O)Nc2c(CC)cccc2CC)cc1 — remaining binding (Calcium-dependent protein kinase 1 (CDPK1, Plasmodium falciparum, UniProt P62344); cell-free assay, competition with immobilised ligand; 1 µM): 88%
CC(=O)O/N=C1/C(c2c(O)[nH]c3cc(Br)ccc23)=Nc2ccccc21 — remaining activity (LTK; enzyme activity, inhibitor, radiometric; 0.5 µM): 83.3%
CC[C@H](C)c1nc2cc(Nc3ccnc4ccc(S(=O)(=O)C(C)C)cc34)ccc2s1 — viability (L929; necroptosis protection, CCK-8; 0.625 µM, added: TNF-α plus zVAD): 33.5%
